Assay results of several laboratories.
Every numbered part comes from another study and shows a few of its results, in no order. Substitutions count along the parent as printed.

Sample 1
Target: CCNE1, cyclin fold, Cln2 fusion (human)
Technique: yeast growth competition, sequencing
Matrix: yeast
Setting: strong parent motif
Baseline: not given
Direction: higher = stronger binding
Starting sequence: INSM1 docking peptide (human); PKAIRKLHFEDEV; partner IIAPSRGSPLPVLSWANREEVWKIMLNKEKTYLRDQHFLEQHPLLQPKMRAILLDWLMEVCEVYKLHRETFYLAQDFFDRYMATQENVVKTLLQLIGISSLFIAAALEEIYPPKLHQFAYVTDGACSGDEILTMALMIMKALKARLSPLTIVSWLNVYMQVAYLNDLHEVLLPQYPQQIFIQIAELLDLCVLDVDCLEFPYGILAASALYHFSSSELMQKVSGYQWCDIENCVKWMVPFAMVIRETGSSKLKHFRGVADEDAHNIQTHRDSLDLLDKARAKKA
| Change | normalised enrichment score |
| --- | --- |
| PKATRKLHFEDEV [I4T] | 1.78 |
| PKAIRKLYFEDEV [H8Y] | 5.44 |
| PKAIRKLHFENEV [D11N] | 3.14 |
| PKAIRNLHFEDEV [K6N] | 1.24 |
| PKAIRKLGFEDEV [H8G] | 1.61 |
| PKAIRKAHFEDEV [L7A] | -0.0889 |
| PKAIEKLHFEDEV [R5E] | 0.184 |
| PKAIRKLHFEYEV [D11Y] | 3.69 |
| PKAIRKLEFEDEV [H8E] | 4.94 |
| PKAIRKLHFIDEV [E10I] | 1.88 |
| PKIIRKLHFEDEV [A3I] | 1.03 |
| PKAIRKLHYEDEV [F9Y] | 0.897 |
| PKAIRKLHDEDEV [F9D] | -0.225 |
| PKAIRKLHQEDEV [F9Q] | -0.0988 |
| PKAIRKLHFKDEV [E10K] | 1.68 |
| PKAILKLHFEDEV [R5L] | 0.466 |
| PKAIRKQHFEDEV [L7Q] | -0.125 |
| PKAIRKLAFEDEV [H8A] | 3.55 |
| PKAIRKLHFEDQV [E12Q] | 3.21 |
| PKAIAKLHFEDEV [R5A] | 0.0348 |
| PKAIRKLFFEDEV [H8F] | 5.86 |
| PKAIRKLHGEDEV [F9G] | -0.0478 |
| PKYIRKLHFEDEV [A3Y] | 3.53 |
| PKAIRKVHFEDEV [L7V] | 0.504 |
| PKAIRKLHFEMEV [D11M] | 3.27 |

Sample 2
Target: Sal-like protein 4, full length isoform B (SALL4, Homo sapiens, UniProt Q9UJQ4-2, residues 1-616)
Technique: universal PBM
Form: double-stranded DNA, one strand shown
Matrix: in vitro
Concentration: not given
Setting: 8-mer, flanks averaged, mean of replicates
Direction: higher = stronger binding
Target sequence (chain): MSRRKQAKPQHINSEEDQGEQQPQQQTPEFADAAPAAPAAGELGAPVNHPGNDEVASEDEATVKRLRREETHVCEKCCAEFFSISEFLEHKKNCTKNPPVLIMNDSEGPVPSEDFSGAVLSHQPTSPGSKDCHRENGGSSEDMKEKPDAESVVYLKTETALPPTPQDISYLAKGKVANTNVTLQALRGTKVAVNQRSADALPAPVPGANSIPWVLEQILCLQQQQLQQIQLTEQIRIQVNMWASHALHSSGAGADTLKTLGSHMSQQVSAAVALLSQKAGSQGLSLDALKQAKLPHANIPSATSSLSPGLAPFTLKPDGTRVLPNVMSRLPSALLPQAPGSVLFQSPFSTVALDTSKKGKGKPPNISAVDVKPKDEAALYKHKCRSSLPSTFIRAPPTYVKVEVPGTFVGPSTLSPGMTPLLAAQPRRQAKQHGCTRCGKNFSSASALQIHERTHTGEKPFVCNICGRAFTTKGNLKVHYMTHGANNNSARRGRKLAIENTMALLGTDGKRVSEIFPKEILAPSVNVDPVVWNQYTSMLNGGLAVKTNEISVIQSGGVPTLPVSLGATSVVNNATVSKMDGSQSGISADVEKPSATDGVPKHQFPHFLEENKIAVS
| Oligonucleotide | E-score |
| --- | --- |
| ATATTGAG | 0.272 |
| ATTGTGCA | 0.0857 |
| TGGAGGAA | -0.0318 |
| GAATATCC | 0.136 |
| CTTGGTAC | 0.0199 |
| TCCGAGCA | -0.188 |
| ACGCGTGA | 0.00171 |
| ATTCGAAT | 0.283 |
| TCTACTCA | 0.0441 |
| GATCTAAC | 0.0258 |
| CCTGCGCA | -0.16 |
| CCGACTGA | -0.172 |
| AGTGACCC | -0.342 |
| ATCCTCTG | -0.045 |
| GACCTACC | -0.229 |
| CGGAATCC | -0.181 |
| TACGCCTA | 0.0961 |
| ATAATGGG | 0.284 |
| GCTTTGTA | 0.0763 |
| ATTGACGG | 0.0689 |
| ACTTTTAG | 0.0518 |
| GGAGCGAA | -0.135 |
| CGACCCCG | -0.376 |
| AGGAAGCC | -0.0978 |
| AACGCCGT | -0.125 |

Sample 3
Target: Interferon regulatory factor 3, full length, phosphomimetic (IRF3, Homo sapiens, UniProt Q14653, residues 1-427, S386D/S396D/S398D/S402D/T404D/S405D)
Technique: protein-binding microarray
Form: double-stranded DNA, one strand shown
Matrix: in vitro
Concentration: 2540 nM top
Setting: 60-bp whole probe
Together with: salmon DNA 0.4 mg/ml
Baseline: random background probes
Direction: higher = stronger binding
All sequences stand within: GCCTAGCAC … GTCTTGATTCGCTTGACGCTGCTG
Residues (chain): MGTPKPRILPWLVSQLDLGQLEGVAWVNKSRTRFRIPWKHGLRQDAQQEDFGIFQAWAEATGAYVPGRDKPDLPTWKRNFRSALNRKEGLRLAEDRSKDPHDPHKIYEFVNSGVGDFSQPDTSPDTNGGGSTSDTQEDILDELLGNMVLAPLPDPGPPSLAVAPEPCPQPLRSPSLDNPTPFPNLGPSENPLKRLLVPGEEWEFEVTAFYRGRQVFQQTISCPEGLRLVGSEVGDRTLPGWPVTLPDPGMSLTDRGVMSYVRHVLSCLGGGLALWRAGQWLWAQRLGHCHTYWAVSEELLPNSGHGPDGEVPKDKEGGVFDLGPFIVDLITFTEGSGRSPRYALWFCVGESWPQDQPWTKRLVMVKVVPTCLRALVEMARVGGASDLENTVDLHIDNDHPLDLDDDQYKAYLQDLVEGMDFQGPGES
| Oligonucleotide | fitted relative affinity [z-score] |
| --- | --- |
| TTAAGTTTCGACTTTCGGTTAGTGCTA | 4.46 |
| TTAGATACCAGTATCGATTAGTGCTAG | 1.43 |
| GTCGGTATCCTACTGCTGACGTGCTAG | 4.09 |
| GACGGACTGGCACTGGGGACGTGCTAG | -0.995 |
| TTCGATATCAGTCTCGATTAGTGCTAG | 1.65 |
| CCGTGTTTCTCAAATGTTTTGGTGCTA | 0.776 |
| GACGGTTTCCATTCCCTGACGTGCTAG | 7.77 |
| TTAGATTACAGTATCGATTAGTGCTAG | 1.08 |
| GACGGTTCCGACACTGGGGACGTGCTA | 0.787 |
| CTAGGTTTCGACTTTCGGTTAGTGCTA | 4.01 |
| GACGATTTCCGTATCGAGACGTGCTAG | 3.46 |
| ATGACAATGATGTTTTGAGTTGTGCTA | -0.544 |
| GCCGGTTTCGACTTTCGGGACGTGCTA | 4.34 |
| GACGGACTGGACTATCGGGAAGTGCTA | -0.465 |
| GACGGTTTCGACATTCGGGACGTGCTA | 3.36 |
| TTACATTCCCCATTGTGTTGGTGCTAG | 1.36 |
| CCTTGCATGTTTTTGACAAAGTGCTAG | 0.44 |
| GACGGTTTCGGGACTGGGGCCGTGCTA | 4.7 |
| GACGGTTTCGGTATCAGGACGTGCTAG | 8.25 |

Sample 4
Target: UBE2J1 UBC core domain (UniProt Q9Y385)
Technique: yeast two-hybrid
Matrix: yeast
Setting: mostly zero background
Baseline: not given
Direction: higher = stronger interaction
B1: TRIM40 RING domain (UniProt Q6P9F5); chain LQKDNQEEGVCPICQESLKEAVSTNCGHLFCRVCLTQHVEKASASGVFCCPLCRKPCSEEVLG
B2: TRIM4 RING domain (UniProt Q9C037); chain EAEDIQEELTCPICLDYFQDPVSIECGHNFCRGCLHRNWAPGGGPFPCPECRHPSAPAALRP
B3: RNF208 RING domain (UniProt Q9H0X6); chain SSAAAGEPLECPTCGHSYNVTQRRPRVLSCLHSVCEQCLQILYESCPKYKFISCPTCRRETVLFTDYG
B4: SH3RF2 RING domain (UniProt Q8TEC5); chain DDLTLLDLLECPVCFEKLDVTAKVLPCQHTFCKPCLQRVFKAHKELRCPECRTPVFSNIEAL
B5: TRIM13 RING domain (UniProt O60858); chain MELLEEDLTCPICCSLFDDPRVLPCSHNFCKKCLEGILEGSVRNSLWRPAPFKCPTCRKETSATGINS
B6: VPS41 RING domain (UniProt P49754); chain KGVLVDEENICESCLSPILPSDAAKPFSVVVFHCRHMFHKECLPMPSMNSAAQFCNICSAKNRGPGSAI
Construct (chain): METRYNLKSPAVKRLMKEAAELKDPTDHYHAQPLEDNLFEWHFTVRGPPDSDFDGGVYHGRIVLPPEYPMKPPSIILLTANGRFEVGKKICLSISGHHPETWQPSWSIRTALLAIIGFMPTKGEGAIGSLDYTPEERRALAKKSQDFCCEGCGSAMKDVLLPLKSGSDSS
| Sequence | lacZ reporter activity |
| --- | --- |
| MPIRALCTICSDFFDHSRDVAAIHCGHTFHLQCLIQWFETAPSRTCPQCRIQVGKRTIIN (TRAIP RING domain (UniProt Q9BWF2)) | 0 |
| FQGDVDEDLICPICSGVLEEPVQAPHCEHAFCNACITQWFSQQQTCPVDRSVVTVAHLRP (RNF41 RING domain (UniProt Q9H4P4)) | 0 |
| B1 (TRIM40 RING domain) | 0 |
| B2 (TRIM4 RING domain) | 0 |
| B3 (RNF208 RING domain) | 0 |
| DHGAVGQEMCCPICCSEYVKGEVATELPCHHYFHKPCVSIWLQKSGTCPVCRCMFPPPL (PJA1 RING domain (UniProt Q8NG27)) | 0 |
| ASLPTSEEDLCPICYAHPISAVFQPCGHKSCKACINQHLMNNKDCFFCKTTIVSVEDWE (RNF123 RING domain (UniProt Q5XPI4)) | 0 |
| B4 (SH3RF2 RING domain) | 0 |
| B5 (TRIM13 RING domain) | 0 |
| B6 (VPS41 RING domain) | 0 |
| VEPSEENSKDCVVCQNGTVNWVLLPCRHTCLCDGCVKYFQQCPMCRQFVQESFALC (CGRRF1 RING domain (UniProt Q99675)) | 0 |

Some of these lines once more (sample 1):
| Change | normalised enrichment score |
| --- | --- |
| PKIIRKLHFEDEV [A3I] | 1.03 |
| PKAIRKLHYEDEV [F9Y] | 0.897 |
| PKAIRKLHDEDEV [F9D] | -0.225 |
| PKAIRKLHQEDEV [F9Q] | -0.0988 |
| PKAIRKLHFKDEV [E10K] | 1.68 |
| PKAILKLHFEDEV [R5L] | 0.466 |
